Results of several laboratories.
Each numbered part is a random draw from the data of one study; scales do not carry over between parts. Positions count from the first letter of the parent shown.

Sample 1
Target: CCNE2, cyclin fold, Cln2 fusion (human)
Technique: yeast growth competition, sequencing
Medium: yeast
Setting: weak parent motif
Baseline: not given
Reading: higher = stronger binding
Measurement: normalised enrichment score
Starting sequence: CDC6 docking peptide (human); TLKGRRLVFDNQL; partner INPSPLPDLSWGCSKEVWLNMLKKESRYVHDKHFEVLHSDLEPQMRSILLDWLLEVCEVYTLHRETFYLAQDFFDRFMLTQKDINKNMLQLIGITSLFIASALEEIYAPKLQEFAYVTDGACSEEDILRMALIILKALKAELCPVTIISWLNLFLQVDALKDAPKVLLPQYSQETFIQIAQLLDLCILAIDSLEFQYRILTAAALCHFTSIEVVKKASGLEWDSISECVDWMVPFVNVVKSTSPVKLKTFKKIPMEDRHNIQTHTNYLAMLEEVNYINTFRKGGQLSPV
TLKGSRLVFDNQL [R5S]: -1.16
ILKGRRLVFDNQL [T1I]: 0.423
TLKVRRLVFDNQL [G4V]: 1.19
TCKGRRLVFDNQL [L2C]: 0.461
TLKGRRLVFDNQG [L13G]: 0.0604
TLKGRRLVMDNQL [F9M]: -0.0532
SLKGRRLVFDNQL [T1S]: 0.298
TLKGRRLYFDNQL [V8Y]: 0.254

Sample 2
Target: Fragile X messenger ribonucleoprotein 1, C-terminal low-complexity region (Fmr1, Mus musculus, UniProt P35922)
Technique: RNA Bind-n-Seq
Molecule type: RNA
Medium: in vitro
Tested at: 200 nM
Setting: whole 134-nt RNA, ends assumed
With: 150 mM LiCl
Baseline: input library
Reading: higher = stronger binding
Measurement: log2 enrichment
Library: 7-deaza-guanosine replaces G
Constant ends, left off below: GGGAGUUCUACAGUCCGACGAUC … UGGAAUUCUCGGGUGUCAAGG
UCUAACUAAUUUUUCUUUGUUUUUUAACAGGAGAGGAGAUACUUACCCUUAAGUCAAGCCAGAAAAAGUGGUUUCCAAAUGGAUUGGCUG: -2.16
CCUCAAGUCCUGUGCUACACAUCGUAUGUACCGAAUCGGGUGGGGUGGGUGGGAAAGUAUUAUGUUACGCCGUUCGGAUCUGCACUUCCA: -0.49
UCAAGUCCUGUGCUACACAUCGUAUGUACCGAAUCGGGUGGGAAAGGGAAAGGGAAAGUAUUAUGUUACGCCGUUCGGAUCUGCACUUCC: -1.08
CCUCAAGUCCUGUGCUACACAUCGUAUGUACCGAAUCGGGGUGGGGUGGGUGGAAAGUAUUAUGUUACGCCGUUCGGAUCUGCACUUCCA: -1.01
GUCCUGUGCUACACAUCGUAUGUACCGAAUCGGGGUUUUUGGGGUUUUUGGGGUGGGGAAAGUAUUAUGUUACGCCGUUCGGAUCUGCAC: -0.879
UGUGCUACACAUCGUAUGUACCGAAUCGGGGUUUUUUUGGGGAAAAAGGGGUUUUUUUGGGGAAAGUAUUAUGUUACGCCGUUCGGAUCU: -1.79
CCCGAGCCGGAGAGGGAGCGCGAGCCGCGCCGGCCCCGGUCGGGCCUCCGAAACCAUGAACUUUCUGCUGUCUUGGGUGCAUUGGAGCCU: -0.0764
CCUGUGCUACACAUCGUAUGUACCGAAUCGGGGAAAAAAAGGGGUUUUUUUGGGGUGGGGAAAGUAUUAUGUUACGCCGUUCGGAUCUGC: -1.3

Sample 3
Target: Histone acetyltransferase KAT6A, winged helix 1, GST fusion (KAT6A, Homo sapiens, UniProt Q92794, residues 1-85)
Technique: protein binding microarray
Molecule type: double-stranded DNA, one strand shown
Medium: in vitro
Tested at: not given
Setting: 8-mer, flanks averaged, mean of 2 arrays, mostly near background
Baseline: not given
Reading: higher = stronger binding
Measurement: E-score
Construct (chain): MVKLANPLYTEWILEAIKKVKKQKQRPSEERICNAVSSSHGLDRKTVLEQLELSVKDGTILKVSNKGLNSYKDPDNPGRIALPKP
GCATACCA: -0.0783
CCTGCTTC: 0.0415
TCGTTTCA: -0.0849
GGGAACTA: 0.0741
AGCGCGGA: 0.283
GGGCGACC: 0.155
AAATCTCT: -0.0643

Further values, each from its own experiment
PhoQ, residues 284 288 289 292 302 303 NLSRDF — fold induction (PhoP, residues 12 14 15 18 19 LHSVW (Escherichia coli, UniProt P23836); Sort-seq, refers to: YFP reporter; E. coli; PhoQ-PhoP variant library, with: 10 µM Mg2+; baseline: high Mg2+ state, higher = stronger signaling): 2.58

For quick reference, copied from above (sample 1):
TLKVRRLVFDNQL [G4V]: 1.19
ILKGRRLVFDNQL [T1I]: 0.423
